Experimental data gathered from unrelated publications.
Numbers after ± are the reported error.

The AUC(0-inf) of `Cc1ncc2n1-c1ccc(Cl)cc1C(c1ccccc1F)=NC2` is reported as 0.286 µM·h (healthy human volunteers, plasma; oral, 5 mg single dose, geometric mean, with: double-strength cranberry juice).
The AUC(0-inf) of `COc1ccc2[nH]cc(CCN(C)C)c2c1` is reported as 1.27 ± 0.208 µM·h (Tg-CYP2D6 humanized mouse, serum; intraperitoneal, 2 mg/kg, with: harmaline 5 mg/kg i.p. pretreatment).
`COc1ccsc1CNCC[C@@]1(c2ccccn2)CCOC2(CCCC2)C1` gave an AUC(0-inf) of 0.0183 µg·h/mL (healthy human, normal renal function, plasma; intravenous, 1 mg single dose, arithmetic mean).
`O[C@H]1CCCN[C@@H]1CCCn1cnc2c(Cl)c(Cl)ccc21` has an AUC(0-inf) of 0.293 µg·h/mL (human, plasma; oral, 100 mg single dose, solution, geometric mean).
`Oc1ccc2cc3ccc4cccc5ccc(c2c1)c3c45` gave an AUC(0-inf) of 104 ± 213 fg BaP equivalents·h/mL (UPLC-AMS; human, plasma; oral, 100 ng of [14C]-BaP).
`COc1ccc(C[C@@H]2NC(=O)[C@H]([C@@H](C)O)NC(=O)[C@@H]3[C@@H]4CCN3C(=O)[C@@H]3Cc5cn(c6ccc(F)cc56)CCCCCCN(Cc5ccc(cc5)CCNC(=O)[C@]5(C)CCCN5C2=O)C(=O)CCC(=O)N[C@@H](C)C(=O)N[C@H](CNC(=O)CCCCC[N+](C)(C)C)C(=O)N[C@@H](Cc2cccc(c2)CNC(=O)CO4)C(=O)N3)cc1` has an AUC(0-inf) of 2.26 µM·h (fasted healthy humans, plasma; oral, 300 mg single dose, with 1800 mg Labrasol, geometric mean).
`CN[C@@H]1C[C@H]2O[C@@](C)([C@@H]1OC)n1c3ccccc3c3c4c(c5c6ccccc6n2c5c31)C(=O)N[C@@H]4O` has an AUC(0-inf) of 8350 µg·h/mL (human patients; intravenous infusion, 34 mg/m^2/24 h, 72 h infusion, cycle 1, mean, with: prednisone).
`O=c1[nH]c(Cc2ccccn2)nc2c1cnn2C1CCOCC1` has an AUC(0-inf) of 6.06 µM·h (healthy male human, plasma; oral, 100 mg, geometric mean).
The AUC(0-inf) of `CCCCCOc1ccc(-c2ccc(-c3ccc(C(=O)N[C@H]4C[C@@H](O)[C@@H](OCC[N+](C)(C)C)NC(=O)[C@@H]5[C@@H](O)[C@@H](C)CN5C(=O)[C@H]([C@@H](C)O)NC(=O)[C@H]([C@H](O)[C@@H](O)c5ccc(O)cc5)NC(=O)[C@@H]5C[C@@H](O)CN5C(=O)[C@H]([C@@H](C)O)NC4=O)cc3)cc2)cc1` is reported as 39.2 µg·h/mL (healthy adult humans, plasma; subcutaneous, 10 mg, geometric mean).
`CC[C@H](C)[C@H](NC(=O)[C@H](CC(C)C)NC(=O)[C@H](Cc1c[nH]c2ccccc12)NC(=O)[C@H](CCC(N)=O)NC(=O)[C@@H](NC(=O)[C@H](Cc1ccccc1)NC(=O)[C@H](C)NC(=O)[C@H](CCCCNC(=O)COCCOCCNC(=O)COCCOCCNC(=O)CC[C@H](NC(=O)CCCCCCCCCCCCCCCCCCC(=O)O)C(=O)O)NC(=O)[C@H](CCC(N)=O)NC(=O)[C@H](C)NC(=O)[C@@H](NC(=O)[C@H](CCCCN)NC(=O)[C@H](CC(=O)O)NC(=O)[C@H](CC(C)C)NC(=O)C(C)(C)NC(=O)[C@@H](NC(=O)[C@H](CO)NC(=O)[C@H](Cc1ccc(O)cc1)NC(=O)[C@H](CC(=O)O)NC(=O)[C@H](CO)NC(=O)[C@@H](NC(=O)[C@H](Cc1ccccc1)NC(=O)[C@@H](NC(=O)CNC(=O)[C@H](CCC(=O)O)NC(=O)C(C)(C)NC(=O)[C@@H](N)Cc1ccc(O)cc1)[C@@H](C)O)[C@@H](C)O)[C@@H](C)CC)[C@@H](C)CC)C(C)C)C(=O)N[C@@H](C)C(=O)NCC(=O)NCC(=O)N1CCC[C@H]1C(=O)N[C@@H](CO)C(=O)N[C@@H](CO)C(=O)NCC(=O)N[C@@H](C)C(=O)N1CCC[C@H]1C(=O)N1CCC[C@H]1C(=O)N1CCC[C@H]1C(=O)N[C@@H](CO)C(N)=O` has an AUC(0-inf) of 87.5 µg·h/mL (human, normal hepatic function, plasma; subcutaneous, 5 mg single dose, geometric LS mean, weight-adjusted).
The AUC(0-inf) of `CC[C@@]1(O)C(=O)OCc2c1cc1n(c2=O)Cc2cc3c(CN(C)C)c(O)ccc3nc2-1` is reported as 0.157 µg·h/mL (human patients, plasma; oral, 8 mg weekly, day 1, geometric mean, alone).
`Cc1ncc(OC[C@@]2(c3cccc(F)c3)C[C@H]2C(=O)Nc2ccc(F)cn2)c(C)n1` has an AUC(0-inf) of 0.39 µg·h/mL (human, plasma; 10 mg, alone, mean).
The AUC(0-inf) of `CC[C@H](C)[C@H](NC(=O)[C@H](CC(C)C)NC(=O)[C@H](Cc1c[nH]c2ccccc12)NC(=O)[C@H](CCC(N)=O)NC(=O)[C@@H](NC(=O)[C@H](Cc1ccccc1)NC(=O)[C@H](C)NC(=O)[C@H](CCCCNC(=O)COCCOCCNC(=O)COCCOCCNC(=O)CC[C@H](NC(=O)CCCCCCCCCCCCCCCCCCC(=O)O)C(=O)O)NC(=O)[C@H](CCC(N)=O)NC(=O)[C@H](C)NC(=O)[C@@H](NC(=O)[C@H](CCCCN)NC(=O)[C@H](CC(=O)O)NC(=O)[C@H](CC(C)C)NC(=O)C(C)(C)NC(=O)[C@@H](NC(=O)[C@H](CO)NC(=O)[C@H](Cc1ccc(O)cc1)NC(=O)[C@H](CC(=O)O)NC(=O)[C@H](CO)NC(=O)[C@@H](NC(=O)[C@H](Cc1ccccc1)NC(=O)[C@@H](NC(=O)CNC(=O)[C@H](CCC(=O)O)NC(=O)C(C)(C)NC(=O)[C@@H](N)Cc1ccc(O)cc1)[C@@H](C)O)[C@@H](C)O)[C@@H](C)CC)[C@@H](C)CC)C(C)C)C(=O)N[C@@H](C)C(=O)NCC(=O)NCC(=O)N1CCC[C@H]1C(=O)N[C@@H](CO)C(=O)N[C@@H](CO)C(=O)NCC(=O)N[C@@H](C)C(=O)N1CCC[C@H]1C(=O)N1CCC[C@H]1C(=O)N1CCC[C@H]1C(=O)N[C@@H](CO)C(N)=O` is reported as 93.4 µg·h/mL (human end-stage renal disease on dialysis, plasma; subcutaneous, 5 mg single, geometric mean).
`Oc1ccc2ccc3c4ccccc4cc4ccc1c2c43` gave an AUC(0-inf) of 63.1 ± 62 fg BaP equivalents·h/mL (UPLC-AMS; human, plasma; oral, 250 ng of [14C]-BaP).

A few entries again:
`O[C@H]1CCCN[C@@H]1CCCn1cnc2c(Cl)c(Cl)ccc21` has an AUC(0-inf) of 0.293 µg·h/mL (human, plasma; oral, 100 mg single dose, solution, geometric mean).
